Measured values from different studies.
Parts stem from different laboratories: compare values within a part only.

Set 1
Target: Interferon regulatory factor 7, full length, phosphomimetic (IRF7, Homo sapiens, UniProt Q92985, residues 1-503, S471D/S472D/S475D/S476D/S477D/S483D/S484D/S487D)
Technique: protein-binding microarray
Molecule type: double-stranded DNA, one strand shown
Sample: in vitro
Tested at: 2200 nM top
Setting: 60-bp whole probe
With: salmon DNA 0.4 mg/ml
Relative to: random background probes
Direction: higher = stronger binding
Quantity: fitted relative affinity
Shared flanks, not repeated: GCCTAGCAC … GTCTTGATTCGCTTGACGCTGCTG
Construct (chain): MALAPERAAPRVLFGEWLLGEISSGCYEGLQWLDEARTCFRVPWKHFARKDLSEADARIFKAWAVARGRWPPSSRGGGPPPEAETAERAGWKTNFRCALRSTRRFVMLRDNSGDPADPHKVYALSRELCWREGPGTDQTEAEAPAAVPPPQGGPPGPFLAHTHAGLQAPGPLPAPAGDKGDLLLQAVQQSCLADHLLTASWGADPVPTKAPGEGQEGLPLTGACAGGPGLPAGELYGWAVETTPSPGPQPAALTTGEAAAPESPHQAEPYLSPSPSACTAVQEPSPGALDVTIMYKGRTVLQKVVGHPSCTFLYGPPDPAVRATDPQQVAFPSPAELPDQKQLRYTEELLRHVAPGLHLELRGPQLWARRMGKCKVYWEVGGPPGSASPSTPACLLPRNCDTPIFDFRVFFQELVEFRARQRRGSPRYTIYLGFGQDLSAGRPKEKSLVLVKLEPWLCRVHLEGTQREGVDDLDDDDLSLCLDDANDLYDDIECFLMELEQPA
GACGGACTGGACAATGGGGACGTGCTA: -0.875 z-score
CACTCTCTACATGTGTTTAAGTGCTAG: 1.49 z-score
TTAGAACTGTGGTATCGATTAGTGCTA: -0.203 z-score
GACGGACTGCTAATCCTGACGTGCTAG: 0.0909 z-score
TCATTTCCATTTTCTGAAACTGTGCTA: 3.92 z-score
TTAGAAGTGGGGACTGGATTAGTGCTA: -0.532 z-score
GACGGTATCCGTATCGGGACGTGCTAG: 0.0807 z-score
CACAGTCTGAGATCCAGAAGGTGCTAG: 0.303 z-score
ATGTAATTCCTGCCTGAGCTCGTGCTA: 0.779 z-score
TTAGGACTCGGGTTTCGGTTAGTGCTA: 3.71 z-score
CACGGTATCGACACTGGGGACGTGCTA: -0.118 z-score
TTAGCACTGGACTTTCGGTTAGTGCTA: 4.95 z-score
GACGATATCGGGTTGCGAGACGTGCTA: 0.582 z-score
CTCTGGGGAGATCAGCGCATGTGCTAG: -0.916 z-score
GACGGTTCCCTTTACCTGACGTGCTAG: 1.74 z-score
TTAGATTTCAGTAACGATTAGTGCTAG: -0.229 z-score
TCATCTTGCTTTTTAGAACTGTGCTAG: 1.43 z-score
GACGGTATCGACTTGCGGGACGTGCTA: 0.397 z-score
TTAGGTTTCCTTTCCCTTCAGTGCTAG: 4.83 z-score
GACGATTTCAGTATCGAGACGTGCTAG: 1.01 z-score

Set 2
Organism: Saccharomyces cerevisiae
Effect on: binding
Technique: yeast competitive growth sequencing
Molecule type: peptide
Strain: cyclin D2-Cln2 fusion strain
Setting: peptide tiling library
Direction: direction not given
Quantity: enrichment score
IPDRSTKPVVFSPT: 2.29
LFVPQRKLEVSTEDVH: -0.843
NCKKRRALDFLSRLPL: -1.57
VKTKKRLNFDDK: -0.452
RRRRLLFWDKETQI: -2.29

Set 3
Target: Histone acetyltransferase KAT6A, both winged helices, GST fusion (KAT6A, Homo sapiens, UniProt Q92794, residues 1-181)
Technique: protein binding microarray
Molecule type: double-stranded DNA, one strand shown
Sample: in vitro
Tested at: not given
Setting: 8-mer, flanks averaged, mean of 2 arrays, mostly near background
Relative to: not given
Direction: higher = stronger binding
Quantity: E-score
Construct (chain): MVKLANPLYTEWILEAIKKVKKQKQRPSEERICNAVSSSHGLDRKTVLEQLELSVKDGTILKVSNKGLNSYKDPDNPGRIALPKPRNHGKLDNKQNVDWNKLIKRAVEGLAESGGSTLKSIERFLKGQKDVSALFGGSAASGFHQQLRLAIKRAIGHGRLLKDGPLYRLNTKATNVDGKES
CCTAGTGC: 0.0262
GATATGGC: 0.052
ACGCGGGG: 0.181
ACGCGTAG: 0.273
CAGTTCAG: -0.0707
GCAAGTAA: -0.169
ACCCGTTA: 0.235
CGCTGGCC: 0.13
TCTACTCA: -0.0647
GACGTCCA: -0.00387
AGCAAGGC: -0.0214
TAGTCATA: -0.125
CGGTCACA: 0.121
AGGCTTCC: 0.0144
ACCTATCA: -0.0791
CGAGATAC: 0.0268
GGCATAAA: 0.0954
CCTTGTCA: -0.031
AGCCAAAT: -0.109
GAGGTATA: -0.184
GTGAACAC: 0.0793
CGTAATTC: 0.0464
ACTCCAAC: -0.138
CGGTAGCC: 0.141

Set 4
Target: Centromere-binding protein 1, full length, N-terminal tag (CBF1, Saccharomyces cerevisiae, UniProt P17106, residues 1-351)
UniProt P17106, sequence (whole entry, looked up): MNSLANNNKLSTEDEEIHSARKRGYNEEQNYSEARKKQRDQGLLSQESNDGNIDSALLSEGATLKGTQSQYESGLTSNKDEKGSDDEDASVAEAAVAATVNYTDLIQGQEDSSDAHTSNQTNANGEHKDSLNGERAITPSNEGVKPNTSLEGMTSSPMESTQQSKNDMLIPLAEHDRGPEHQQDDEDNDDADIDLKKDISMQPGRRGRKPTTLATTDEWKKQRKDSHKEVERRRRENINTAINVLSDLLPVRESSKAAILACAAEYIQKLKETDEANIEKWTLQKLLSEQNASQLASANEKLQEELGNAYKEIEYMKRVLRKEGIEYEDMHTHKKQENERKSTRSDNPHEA
Technique: protein-binding microarray
Molecule type: double-stranded DNA, one strand shown
Sample: in vitro
Tested at: 0.8 µM
Setting: whole 60-bp probe, no competitor
Direction: higher = stronger binding
Quantity: fluorescence intensity
Shared flanks, not repeated: … GTCTTGATTCGCTTGACGCTGCTG
CTATCAGTATGACAATACGTCACCCTGAACGTTTTC: 547 a.u.
CTACTGACATAATTGTTGGTCACAAAATTCTTTTTC: 626 a.u.
CTAGTTTCCACGTACCACGCAAAACTTGTCTCATTC: 528 a.u.
TGTACGAAGCTATGTTATCAGCTTATAGTAGTTAGG: 512 a.u.
CTACAATCATTCGCGCACGAGGCATGGACAGAATTC: 827 a.u.
CCTAACTACTATATGCACATGTGATAGCTTCGTACA: 2760 a.u.
GAAAAAAGACTCTTTCATGTGGGTAATTTACTATAG: 521 a.u.
GAATTGAAATGATGACATGTGGAAATATAACAGTAG: 747 a.u.
CTAAGGCGATGCTAACGTGTGTTTACTGTTTTATTC: 490 a.u.
CTAAAGTGTGGCGGTCACGCTGAACGCAGGAGATTC: 870 a.u.
CTAACATATATTTAATGCGTCACCTGCCTATTCTTC: 2170 a.u.
CTAAAGGATTAATGAGAGGTGACGTATAAAATCTTC: 501 a.u.
CTATTCTTCTTGCAGCACATCAGCTGCTTTGCTTTC: 1120 a.u.
GAACTGGGTACACCACTCGTGCGTCCCTTGGAGTAG: 497 a.u.
GAAGCAATGCTTCATCTGATGTTTACACAGAATTAG: 504 a.u.
CTATTTTTTGTGGGTGTCACCACGCTAGCGCTTTTC: 513 a.u.
CTATTCTACCCCTTCAGCGTGAAAAATCACCATTTC: 530 a.u.
CTAAAATGCCAAGAATGCGTGACGGTTTCCCTCTTC: 545 a.u.
GAAGCCCATTTCTGGGACATCAGCACTTGCGGTTAG: 545 a.u.
CTAAAGAAAAGTAGTTGTCACGTTCCTGAGGTTTTC: 1310 a.u.
TGTACGAAGCTATAGAACGTGTATATAGTAGTTAGG: 570 a.u.
CTATCACAGTTCCGGAACCTAAGCCTAACGAAATTC: 512 a.u.
CTACACCAGCGCCACCACGGGGACCCGCCCCGATTC: 489 a.u.

Set 5
Target: RNA binding protein fox-1 homolog 2, RRM domain, GST-SBP tag (RBFOX2, Homo sapiens, UniProt O43251-10, residues 100-194)
Technique: RNA Bind-n-Seq
Molecule type: RNA
Sample: in vitro
Tested at: 365 nM
Setting: natural RNA segment, single round, ends assumed
Relative to: no-protein control
Direction: higher = stronger binding
Quantity: RBNS enrichment (R)
Shared flanks, not repeated: GGGAGUUCUACAGUCCGACGAUC … UGGAAUUCUCGGGUGCCAA
Construct (chain): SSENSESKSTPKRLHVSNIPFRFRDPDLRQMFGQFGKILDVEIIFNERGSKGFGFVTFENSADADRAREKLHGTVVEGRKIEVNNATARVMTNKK
GGCAGAGAUGCAGUUACCUACCCUAGCUUUUGAUGGGUUCUCUUACCUGUAGUAGCCUUAUCCCUGGUCAUUUGGAUUUUCAGUUUGCUUUUUUCUUUUUUUCCCCUCCA: 2.3
AUGGCAGCCUUGGCACAAUGCCUGGGUGUCCUCAUCCUUGCUUUACUCUGGAAAGUGUGGGGAUGGAGAGGAUGGUGCAUUUCCAGUGCUUCCUUACCUGUCAAUAACAA: 0.246
GUGGAGUCAUGGUGUUAGUGUUCUGCCUUUUUAUGUUCUAAGACUACUUGUUAGAGGACGGAAGAUUUGCUACAGUGGUCUAGAGUUAAAAUGUGCUCUUUAGUUGCCCA: 0.422
CACGAGAGACCAUGUAUAUAAAAUAGUCAUGACGACACUGACCUCUUGCACUUGUACAUAACUAUACUGUAGUGUCCAGAAUGUUCAGACAUUCAGGGUGUACAUAAACA: 0.352
GACAGUCGUUUCUUUUCCAGCCUCCUGGCCUUCGGACUCUGAAUCUGGGCAGGAAGAGUCCUCAGUCCCAAGACCAGGAGGGGGCAAUGGGCCCAGCCUUUCUGUGGUAU: 0.599
UAUUUCCUGGGGAUUGUUUGCUUUUUAAGUGAAACACUUCUGACCAAUAGCACAGAACGUCUUAAUGCCAGAGGUCACUUCAGCAUCUUCCUGCUUUGAAAACUCACGCU: 0.29
AUUUUGUAUGUUUUUUUAAAUGUGUCUUUGAUGCAUACUUUAGAAGCACACUGGCUCGCGGUUUCCAUCCCUCUUGCCUUGGGACACUCUUGAGGCUGGCAGCCCUCCUG: 0.306
CCGAGCGGGUAGGAGAGUUUCUUGCAGAACGUGUUUUUUCUUUACACACAUUAUGGCUGUAAAUACCUGGCUCCUGCCAGCAGCUGAGCUGGGUAGCCUCUCUGAGCUGG: 0.355
GUGUUGGGAGGGCAGGAGCAUUCCUUGAGGAGGAGUGGCAACAUCAAAGUGUUUGUGUCCCUUGCCAGCCUCCCUGGGGUCUGGGGACCUGCAGCAGCAUGUCUGGCAAA: 2.91
CGGUUUCUCCCAUCCGUGUUCCAGCAUCUAACCUUUUACUUUUGCAUAGGAAAUACUUGAUUUAAUUACAGGUCCAGGGAUGAGCUGAUGGUUGCUGGAGGAGGCCAGUG: 0.409
UGCCACCCAGAGCCUACCGGCACCAGCACAGGGUUCACACUACAGAGCAUCUGCGUGUGUUUGAGUUGGUUUCUGCUUCCGUUUCUGUUUUUGUUCUUUUUCUGAAGGUG: 0.462
AGAGCUGCUGCCCAGCAGAAGUCUUAGAAAUAUGCCUUGAAGCAGCCGUUGUGUAAUUAUGAGCUGGGCAGCCCAGGUAUAGUUAGUUUUAGGCUUGUAGGUUUACUUCC: 0.825
